Assay results pooled from the literature.
A part holds a random share of what one study measured. Values joined by “and” are separate records of one study, mostly repeats; a detail may differ.
UniProt P04049, sequence (whole entry, looked up): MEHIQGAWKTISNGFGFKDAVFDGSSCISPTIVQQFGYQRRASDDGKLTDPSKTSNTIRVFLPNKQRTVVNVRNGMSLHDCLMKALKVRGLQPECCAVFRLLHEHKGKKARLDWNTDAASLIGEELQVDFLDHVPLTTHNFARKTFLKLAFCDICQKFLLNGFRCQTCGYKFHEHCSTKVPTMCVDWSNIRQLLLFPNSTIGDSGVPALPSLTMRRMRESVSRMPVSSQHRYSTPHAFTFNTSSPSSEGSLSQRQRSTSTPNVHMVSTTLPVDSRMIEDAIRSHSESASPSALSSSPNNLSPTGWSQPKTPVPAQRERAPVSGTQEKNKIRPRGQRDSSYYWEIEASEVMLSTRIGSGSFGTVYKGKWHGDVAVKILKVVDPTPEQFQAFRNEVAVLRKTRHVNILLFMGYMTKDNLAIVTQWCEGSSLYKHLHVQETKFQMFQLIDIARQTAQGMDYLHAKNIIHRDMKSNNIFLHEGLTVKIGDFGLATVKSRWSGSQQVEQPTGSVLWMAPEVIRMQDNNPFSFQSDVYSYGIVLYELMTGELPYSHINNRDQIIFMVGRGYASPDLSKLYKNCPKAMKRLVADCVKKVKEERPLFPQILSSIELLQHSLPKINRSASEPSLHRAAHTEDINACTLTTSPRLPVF
UniProt O15197, sequence (whole entry, looked up): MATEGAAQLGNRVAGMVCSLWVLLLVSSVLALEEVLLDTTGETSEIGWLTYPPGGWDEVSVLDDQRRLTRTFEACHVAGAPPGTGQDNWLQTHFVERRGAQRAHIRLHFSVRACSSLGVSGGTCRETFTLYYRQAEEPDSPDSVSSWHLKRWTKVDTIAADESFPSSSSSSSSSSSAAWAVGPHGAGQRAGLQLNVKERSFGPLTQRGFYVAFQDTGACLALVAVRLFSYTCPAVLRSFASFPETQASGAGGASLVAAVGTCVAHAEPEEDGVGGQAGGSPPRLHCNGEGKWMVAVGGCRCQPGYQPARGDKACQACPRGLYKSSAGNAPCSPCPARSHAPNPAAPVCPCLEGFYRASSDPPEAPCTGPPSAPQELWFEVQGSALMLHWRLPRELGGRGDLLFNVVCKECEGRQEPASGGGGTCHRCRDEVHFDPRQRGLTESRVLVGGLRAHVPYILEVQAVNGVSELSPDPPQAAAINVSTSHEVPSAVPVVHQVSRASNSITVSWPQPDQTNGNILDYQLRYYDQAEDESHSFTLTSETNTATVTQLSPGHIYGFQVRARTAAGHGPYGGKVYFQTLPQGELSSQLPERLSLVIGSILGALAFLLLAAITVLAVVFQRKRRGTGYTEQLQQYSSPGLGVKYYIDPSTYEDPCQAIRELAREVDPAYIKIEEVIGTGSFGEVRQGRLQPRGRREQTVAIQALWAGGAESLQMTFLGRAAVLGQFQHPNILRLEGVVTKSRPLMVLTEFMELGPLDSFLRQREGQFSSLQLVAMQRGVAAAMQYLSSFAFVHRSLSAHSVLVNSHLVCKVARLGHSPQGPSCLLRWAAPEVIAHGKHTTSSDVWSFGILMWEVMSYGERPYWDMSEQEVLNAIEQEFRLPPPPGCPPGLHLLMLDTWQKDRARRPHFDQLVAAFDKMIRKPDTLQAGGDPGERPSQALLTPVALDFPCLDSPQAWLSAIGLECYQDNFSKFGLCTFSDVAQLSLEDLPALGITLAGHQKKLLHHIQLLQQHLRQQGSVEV
UniProt P54760, sequence (whole entry, looked up): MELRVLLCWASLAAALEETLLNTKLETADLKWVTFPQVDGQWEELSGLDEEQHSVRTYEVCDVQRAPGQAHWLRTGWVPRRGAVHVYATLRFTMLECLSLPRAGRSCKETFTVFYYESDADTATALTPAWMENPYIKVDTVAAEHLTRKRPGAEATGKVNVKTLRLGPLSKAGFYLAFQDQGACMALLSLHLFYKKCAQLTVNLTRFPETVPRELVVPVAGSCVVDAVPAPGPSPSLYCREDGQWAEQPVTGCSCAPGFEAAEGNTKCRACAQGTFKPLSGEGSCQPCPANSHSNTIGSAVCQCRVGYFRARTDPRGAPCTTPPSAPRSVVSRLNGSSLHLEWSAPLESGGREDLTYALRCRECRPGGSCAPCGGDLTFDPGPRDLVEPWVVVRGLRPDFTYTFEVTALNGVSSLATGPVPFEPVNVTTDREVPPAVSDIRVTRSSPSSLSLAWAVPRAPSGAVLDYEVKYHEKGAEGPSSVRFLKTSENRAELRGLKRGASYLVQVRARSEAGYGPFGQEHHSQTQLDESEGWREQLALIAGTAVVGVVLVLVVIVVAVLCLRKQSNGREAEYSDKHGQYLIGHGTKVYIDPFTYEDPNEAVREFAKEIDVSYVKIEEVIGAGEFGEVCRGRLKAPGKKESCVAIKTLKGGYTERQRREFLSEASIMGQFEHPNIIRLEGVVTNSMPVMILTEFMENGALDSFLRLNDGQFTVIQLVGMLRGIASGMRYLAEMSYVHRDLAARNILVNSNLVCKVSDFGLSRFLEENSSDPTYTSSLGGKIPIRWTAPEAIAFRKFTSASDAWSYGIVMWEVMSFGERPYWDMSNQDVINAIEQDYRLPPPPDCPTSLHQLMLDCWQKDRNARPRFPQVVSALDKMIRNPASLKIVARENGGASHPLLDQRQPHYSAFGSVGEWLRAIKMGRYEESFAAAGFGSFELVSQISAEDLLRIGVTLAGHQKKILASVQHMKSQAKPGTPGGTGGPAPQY
UniProt Q6P2M8, sequence (whole entry, looked up): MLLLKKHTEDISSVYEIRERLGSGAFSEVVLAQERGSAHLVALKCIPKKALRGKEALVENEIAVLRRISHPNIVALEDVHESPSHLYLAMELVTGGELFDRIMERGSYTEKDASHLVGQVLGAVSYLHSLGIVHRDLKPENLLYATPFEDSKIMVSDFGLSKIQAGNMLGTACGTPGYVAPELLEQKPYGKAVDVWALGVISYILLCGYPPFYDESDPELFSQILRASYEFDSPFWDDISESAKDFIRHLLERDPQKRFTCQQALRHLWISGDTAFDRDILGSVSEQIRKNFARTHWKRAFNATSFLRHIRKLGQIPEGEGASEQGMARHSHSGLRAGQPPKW

Block 1 — cell line: mouse MPNST tumor cells; method: high-content nuclear imaging; item: cell number; concentration: 10 µM; time: 12 h; notes: mean of 2 replicates; baseline: plate mean; reading: higher = more cells
Compound	nuclei count
CCN(CC)C(=O)c1ccc(O)c(OC)c1	1.02 z-score
NS(=O)(=O)c1cc2c(cc1Cl)N=C(CSCc1ccccc1)NS2(=O)=O	2.57 z-score
CC(=O)O[C@H]1C[C@@]2(C)[C@@H](C[C@@H](O)[C@H]3[C@@]4(C)CC[C@@H](O)[C@@H](C)[C@@H]4CC[C@@]32C)/C1=C(\CCC=C(C)C)C(=O)O	0.492 z-score
CCCC(CCC)C(=O)O	0.765 z-score and 0.737 z-score and 0.404 z-score
COc1cc2nc(-c3cc(F)ccc3O)nc(N[C@@H]3CNC[C@H]3C(C)(C)O)c2cc1OC	-5.41 z-score
CC(C)[N+](C)(CCOC(=O)C1c2ccccc2Oc2ccccc21)C(C)C	1.14 z-score
O=C(c1ccc(F)cc1)N1CCc2nc(COc3ccccc3)oc2C1	1.08 z-score
O=C(NCc1ccc(F)cc1)N1CCN2C(=O)OC(c3ccccc3)(c3ccccc3)C2C1 (centres unmarked)	2.31 z-score
O=c1cc(NCCCN[C@@H]2CCOc3c(Br)cc(Br)cc32)[nH]c2ccsc12	2.46 z-score
Cc1cc(-c2nc(-c3ccc(OC(F)(F)F)cc3)no2)nn1Cc1ccnc(N2CCN(C3CC3)CC2)c1	-0.962 z-score
CCCCN(CCCC)CCC(O)c1cc2c(Cl)cc(Cl)cc2c2cc(C(F)(F)F)ccc12 (centres unmarked)	0.414 z-score and -0.856 z-score
CC1=C(/C=C/C(C)=C/C=C/C(C)=C\C(=O)O)C(C)(C)CCC1	-1.83 z-score
CC1(C)O[C@@H]2[C@@H](CO[C@@]3(COS(N)(=O)=O)OC(C)(C)O[C@@H]23)O1	1.89 z-score and 0.771 z-score and 1.27 z-score

Block 2 — effect on: enzyme activity; mode: inhibitor; concentration: 0.5 µM; baseline: control
Target: Serine/threonine-protein kinase N2 (PKN2, Homo sapiens, UniProt Q16513)
UniProt Q16513, sequence (whole entry, looked up): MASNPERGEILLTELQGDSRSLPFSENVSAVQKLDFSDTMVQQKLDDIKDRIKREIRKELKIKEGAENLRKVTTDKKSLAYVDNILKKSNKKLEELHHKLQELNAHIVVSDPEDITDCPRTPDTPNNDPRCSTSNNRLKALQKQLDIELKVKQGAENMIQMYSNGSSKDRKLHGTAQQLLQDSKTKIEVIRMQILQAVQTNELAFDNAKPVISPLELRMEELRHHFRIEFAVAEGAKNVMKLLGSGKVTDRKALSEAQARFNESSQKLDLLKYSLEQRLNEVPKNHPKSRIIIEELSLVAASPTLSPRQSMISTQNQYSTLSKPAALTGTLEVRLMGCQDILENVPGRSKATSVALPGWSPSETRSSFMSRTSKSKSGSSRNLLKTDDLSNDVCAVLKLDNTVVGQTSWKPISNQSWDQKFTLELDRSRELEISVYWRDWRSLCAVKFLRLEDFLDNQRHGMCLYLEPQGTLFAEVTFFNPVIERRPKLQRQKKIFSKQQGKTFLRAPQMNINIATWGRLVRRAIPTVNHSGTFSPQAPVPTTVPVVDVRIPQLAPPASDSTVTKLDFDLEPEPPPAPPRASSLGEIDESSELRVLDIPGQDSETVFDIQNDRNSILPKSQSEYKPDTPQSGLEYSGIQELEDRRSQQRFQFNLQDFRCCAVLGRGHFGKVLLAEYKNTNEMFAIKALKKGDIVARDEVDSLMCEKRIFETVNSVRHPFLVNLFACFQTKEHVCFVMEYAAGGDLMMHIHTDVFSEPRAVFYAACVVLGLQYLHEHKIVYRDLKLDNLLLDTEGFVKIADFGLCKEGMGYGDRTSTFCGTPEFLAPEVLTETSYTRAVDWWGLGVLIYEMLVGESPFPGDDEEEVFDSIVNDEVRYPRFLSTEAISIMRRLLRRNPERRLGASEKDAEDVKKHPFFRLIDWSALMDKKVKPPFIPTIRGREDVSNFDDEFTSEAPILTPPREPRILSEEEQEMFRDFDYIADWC
Compound	remaining activity [%]
N#Cc1c(NC(=O)c2cccc3ccccc23)sc2c1CCCC2	103
O=C(NC(NC(=S)Nc1ccc(F)c([N+](=O)[O-])c1)C(Cl)(Cl)Cl)C(c1ccccc1)c1ccccc1 (centres unmarked)	88.1
CN(C)C[C@H]1CCn2c(c(C3=C(c4cn(C)c5ccccc45)C(=O)NC3=O)c3ccccc32)C1	87
COc1cc2ncnc(Nc3cccc(Cl)c3)c2cc1OC	89.8
O=C(Nc1cccc(Nc2nccc(Nc3cccc(C(F)(F)F)c3)n2)c1)C1CC1	89.5
Cc1cn(-c2cc(NC(=O)c3ccc(C)c(Nc4nccc(-c5cccnc5)n4)c3)cc(C(F)(F)F)c2)cn1	96
c1ccc(-c2cnc(Nc3ccc(OCCN4CCCC4)cc3)s2)cc1	97
Cc1cc2ncc(-c3ccccc3)nc2cc1C	104
CCOc1nc(NC(=O)Cc2cc(OC)ccc2OC)cc(N)c1C#N	99.7
CCN(CC)CCNC(=O)c1c(C)[nH]c(/C=C2\C(=O)Nc3ccc(Cl)cc32)c1C	84.4
Cc1nc2cc3nc(-c4cccs4)cnc3cc2n1C	71
COc1cc2ncnc(Nc3ccc(O)c(Br)c3)c2cc1OC	97.2
CCN(CC)CCNC(=O)c1c(C)[nH]c(/C=C2\C(=O)Nc3ccc(F)cc32)c1C	89.1
O=c1cc(-c2cccc3c2Sc2ccccc2S3)oc(N2CCOCC2)c1	72.9
O=C1C(Cl)=C(N2C(=O)CCC2=O)C(=O)c2ccccc21	108
CCN(CC)C(=O)c1ccc(Nc2nc(OCC3CCCCC3)c3[nH]cnc3n2)cc1	91.8
Nc1cccc(-c2cc3c(Oc4cccc(O)c4)ncnc3[nH]2)c1	72
CN([C@@H](Cc1ccc(OS(=O)(=O)c2cccc3cnccc23)cc1)C(=O)N1CCN(c2ccccc2)CC1)S(=O)(=O)c1cccc2cnccc12	98.6
O=C1c2ccccc2-c2n[nH]c3cccc1c23	94.2
Ic1cccc(CSc2nnc(-c3ccncc3)o2)c1	100
COc1cc2c(cc1OC)-c1[nH]nc(Nc3cccc(F)c3)c1C2	92
Cn1nc2c3c(cccc31)C(=O)c1ccccc1-2	97.3

Block 3 — concentration: 1 µM
Compound: CO[C@@H](C)c1c(Nc2ccc([C@@H](N(C)C(=O)C3CCS(=O)(=O)CC3)C(F)(F)F)cc2)cnc2cc(Cl)nn12
target	effect on	method	remaining binding
CAMK1 (Homo sapiens, UniProt Q14012)	cell-free assay	competition with immobilised ligand	82%
ULK1 (Homo sapiens, UniProt O75385)	cell-free assay	competition with immobilised ligand	100%
BMX (Homo sapiens, UniProt P51813)	cell-free assay	competition with immobilised ligand	83%
EPHA2 (Homo sapiens, UniProt P29317)	cell-free assay	competition with immobilised ligand	83%
PNCK (Homo sapiens, UniProt Q6P2M8)	cell-free assay	competition with immobilised ligand	100%
EPHB6 (Homo sapiens, UniProt O15197)	cell-free assay	competition with immobilised ligand	100%
Receptor-type tyrosine-protein kinase FLT3, autoinhibited (FLT3, Homo sapiens, UniProt P36888)	cell-free assay	competition with immobilised ligand	94%
Ribosomal protein S6 kinase alpha-4, N-terminal kinase domain (RPS6KA4, Homo sapiens, UniProt O75676)	cell-free assay	competition with immobilised ligand	94%
CDK11A (Homo sapiens, UniProt Q9UQ88)	binding	competition with immobilised ligand	100%
STK4 (Homo sapiens, UniProt Q13043)	cell-free assay	competition with immobilised ligand	100%
CLK1 (Homo sapiens, UniProt P49759)	cell-free assay	competition with immobilised ligand	82%
EPHB4 (Homo sapiens, UniProt P54760)	cell-free assay	competition with immobilised ligand	100%
RAF1 (Homo sapiens, UniProt P04049)	cell-free assay	competition with immobilised ligand	100%
STK3 (Homo sapiens, UniProt Q13188)	cell-free assay	competition with immobilised ligand	100%
AAK1 (Homo sapiens, UniProt Q2M2I8)	binding		96%

Block 4 — species: human; sample: microsomes or S9; concentration: 2 µM; time: 0.5 h
SMILES	remaining compound [%]
CC(NS(=O)(=O)c1ccc(S(=O)(=O)NC2CCCCC2C)cc1)c1ccc(F)cc1 (centres unmarked)	0.443
O=C1CC(c2ccccc2Cl)c2cc3c(cc2N1)CCC3 (centres unmarked)	33.3
Cc1ccc(NC(=O)NCC(C(C)C)N(C)C)cc1 (centres unmarked)	57.2
CCN(Cc1cccc(F)c1)C(=O)c1occc1CS(=O)(=O)c1ccccc1	0.254
CCCC(=O)c1c[nH]c2c(OCC)nccc2c1=O	36.2
Cc1ccc2c(c1C)NC(=O)CC2c1c(F)cccc1Cl (centres unmarked)	28.6
Nc1cccc(COc2cc(Cl)c(Cl)cc2Cl)c1	92.2
CO[C@H]1C[C@H](C(=O)Nc2ccncc2C(C)=O)N(S(C)(=O)=O)C1	> 100
Cc1cn(C)c(CC(=O)NCCCN2CCC(Cc3ccccc3)CC2)c1C(=O)O	94.5
O=C(O)CCN(C(=O)c1cc2c(s1)CCCC2)C1CCOCC1	> 100
CCc1nn(C)c(Cl)c1CN1CCc2cc(F)c(F)cc21	53.8
Cc1ccc(CCCNC(=O)c2cc(C(C)(C)C)c(O)c(C(C)(C)C)c2)cc1C	75
CC(C)CCN(C)C1CCN(S(=O)(=O)c2ccc(C3CCCCC3)cc2)CC1	61.4
Cc1cccc(C2NCCc3c2[nH]c2ccccc32)c1 (centres unmarked)	> 100
CC(Cc1nc2c(s1)Cc1ccccc1-2)n1cc(Cl)cn1 (centres unmarked)	0.444

Repeated from above (block 1):
Compound	nuclei count
O=C(NCc1ccc(F)cc1)N1CCN2C(=O)OC(c3ccccc3)(c3ccccc3)C2C1 (centres unmarked)	2.31 z-score
CCN(CC)C(=O)c1ccc(O)c(OC)c1	1.02 z-score
O=C(c1ccc(F)cc1)N1CCc2nc(COc3ccccc3)oc2C1	1.08 z-score
CCCCN(CCCC)CCC(O)c1cc2c(Cl)cc(Cl)cc2c2cc(C(F)(F)F)ccc12 (centres unmarked)	0.414 z-score and -0.856 z-score
O=c1cc(NCCCN[C@@H]2CCOc3c(Br)cc(Br)cc32)[nH]c2ccsc12	2.46 z-score
Cc1cc(-c2nc(-c3ccc(OC(F)(F)F)cc3)no2)nn1Cc1ccnc(N2CCN(C3CC3)CC2)c1	-0.962 z-score
CC(C)[N+](C)(CCOC(=O)C1c2ccccc2Oc2ccccc21)C(C)C	1.14 z-score
COc1cc2nc(-c3cc(F)ccc3O)nc(N[C@@H]3CNC[C@H]3C(C)(C)O)c2cc1OC	-5.41 z-score
NS(=O)(=O)c1cc2c(cc1Cl)N=C(CSCc1ccccc1)NS2(=O)=O	2.57 z-score
